Measured values of several laboratories.
Each numbered part is a random draw from the data of one study; scales do not carry over between parts. Several values in a cell are separate wells, animals, samples, runs or records.
UniProt Q9UQM7, sequence (whole entry, looked up): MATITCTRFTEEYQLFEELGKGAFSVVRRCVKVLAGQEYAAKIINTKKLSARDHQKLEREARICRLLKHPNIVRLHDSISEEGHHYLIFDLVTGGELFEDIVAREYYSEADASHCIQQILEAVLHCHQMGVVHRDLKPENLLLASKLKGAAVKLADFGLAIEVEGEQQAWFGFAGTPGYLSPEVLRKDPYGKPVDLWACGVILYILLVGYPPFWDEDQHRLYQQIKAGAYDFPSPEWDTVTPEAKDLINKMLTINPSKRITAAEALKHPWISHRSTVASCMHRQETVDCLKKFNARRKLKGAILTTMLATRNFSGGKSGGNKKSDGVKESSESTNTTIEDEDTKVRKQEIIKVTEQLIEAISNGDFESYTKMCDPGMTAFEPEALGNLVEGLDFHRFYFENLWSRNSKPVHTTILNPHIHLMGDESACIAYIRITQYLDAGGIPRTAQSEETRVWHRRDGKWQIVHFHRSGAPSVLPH
UniProt Q6DT37, sequence (whole entry, looked up): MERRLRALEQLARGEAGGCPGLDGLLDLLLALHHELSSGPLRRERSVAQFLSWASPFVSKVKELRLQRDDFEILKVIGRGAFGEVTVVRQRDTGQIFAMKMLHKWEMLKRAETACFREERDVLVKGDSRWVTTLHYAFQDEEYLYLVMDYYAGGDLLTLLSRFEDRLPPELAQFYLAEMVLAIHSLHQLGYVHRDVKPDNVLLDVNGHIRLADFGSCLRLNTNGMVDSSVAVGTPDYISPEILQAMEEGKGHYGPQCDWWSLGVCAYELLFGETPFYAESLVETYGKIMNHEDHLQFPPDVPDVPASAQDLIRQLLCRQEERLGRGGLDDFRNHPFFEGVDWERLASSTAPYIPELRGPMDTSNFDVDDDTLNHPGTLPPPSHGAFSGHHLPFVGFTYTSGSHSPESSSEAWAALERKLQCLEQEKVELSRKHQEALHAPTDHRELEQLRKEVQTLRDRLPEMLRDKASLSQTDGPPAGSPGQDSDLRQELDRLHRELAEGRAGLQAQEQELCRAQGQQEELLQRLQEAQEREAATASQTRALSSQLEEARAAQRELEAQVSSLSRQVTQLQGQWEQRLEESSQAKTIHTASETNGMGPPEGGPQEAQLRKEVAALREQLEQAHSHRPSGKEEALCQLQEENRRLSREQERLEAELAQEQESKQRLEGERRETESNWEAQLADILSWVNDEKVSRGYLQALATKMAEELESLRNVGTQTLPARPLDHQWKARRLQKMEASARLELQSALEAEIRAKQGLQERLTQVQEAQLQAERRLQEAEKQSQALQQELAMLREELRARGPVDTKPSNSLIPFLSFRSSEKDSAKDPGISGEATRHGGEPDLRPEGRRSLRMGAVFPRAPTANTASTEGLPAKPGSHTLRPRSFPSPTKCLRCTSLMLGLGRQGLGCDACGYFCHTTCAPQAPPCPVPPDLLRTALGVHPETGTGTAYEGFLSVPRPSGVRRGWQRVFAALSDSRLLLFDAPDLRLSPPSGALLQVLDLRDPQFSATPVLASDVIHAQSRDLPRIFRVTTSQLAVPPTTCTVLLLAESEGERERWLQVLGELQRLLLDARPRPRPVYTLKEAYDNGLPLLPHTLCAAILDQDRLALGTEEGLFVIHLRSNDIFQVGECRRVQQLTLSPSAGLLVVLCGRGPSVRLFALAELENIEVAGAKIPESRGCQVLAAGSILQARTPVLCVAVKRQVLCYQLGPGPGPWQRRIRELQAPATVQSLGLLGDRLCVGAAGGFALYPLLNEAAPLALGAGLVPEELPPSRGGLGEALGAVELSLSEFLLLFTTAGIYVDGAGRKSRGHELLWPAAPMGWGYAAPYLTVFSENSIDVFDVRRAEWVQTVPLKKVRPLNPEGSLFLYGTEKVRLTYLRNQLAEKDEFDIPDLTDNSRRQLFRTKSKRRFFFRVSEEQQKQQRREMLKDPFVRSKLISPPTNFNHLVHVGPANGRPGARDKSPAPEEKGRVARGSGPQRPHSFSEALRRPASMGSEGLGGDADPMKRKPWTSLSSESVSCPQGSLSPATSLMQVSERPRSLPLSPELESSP
UniProt Q9Y572, sequence (whole entry, looked up): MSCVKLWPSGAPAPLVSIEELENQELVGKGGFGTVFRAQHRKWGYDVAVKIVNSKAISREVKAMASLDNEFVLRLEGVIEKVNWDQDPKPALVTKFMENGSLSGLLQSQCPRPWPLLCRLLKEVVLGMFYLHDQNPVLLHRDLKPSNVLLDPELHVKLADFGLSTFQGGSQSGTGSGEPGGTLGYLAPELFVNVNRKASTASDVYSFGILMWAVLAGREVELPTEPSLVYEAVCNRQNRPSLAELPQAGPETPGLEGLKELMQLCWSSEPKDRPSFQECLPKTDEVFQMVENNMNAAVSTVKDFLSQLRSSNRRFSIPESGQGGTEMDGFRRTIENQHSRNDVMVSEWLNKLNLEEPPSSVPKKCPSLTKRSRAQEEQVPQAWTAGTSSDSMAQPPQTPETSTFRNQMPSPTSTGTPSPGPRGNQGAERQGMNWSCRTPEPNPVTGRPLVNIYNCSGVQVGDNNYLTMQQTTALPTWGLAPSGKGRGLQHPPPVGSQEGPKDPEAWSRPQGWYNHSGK
UniProt P11802, sequence (whole entry, looked up): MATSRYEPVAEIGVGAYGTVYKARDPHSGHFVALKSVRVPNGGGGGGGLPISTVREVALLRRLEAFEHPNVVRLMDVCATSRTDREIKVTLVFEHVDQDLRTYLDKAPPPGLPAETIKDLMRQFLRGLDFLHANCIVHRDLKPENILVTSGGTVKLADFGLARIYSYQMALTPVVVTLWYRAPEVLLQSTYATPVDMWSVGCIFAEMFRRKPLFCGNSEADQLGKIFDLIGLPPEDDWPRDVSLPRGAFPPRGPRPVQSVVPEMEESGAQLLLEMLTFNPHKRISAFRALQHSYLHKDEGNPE
UniProt O14730, sequence (whole entry, looked up): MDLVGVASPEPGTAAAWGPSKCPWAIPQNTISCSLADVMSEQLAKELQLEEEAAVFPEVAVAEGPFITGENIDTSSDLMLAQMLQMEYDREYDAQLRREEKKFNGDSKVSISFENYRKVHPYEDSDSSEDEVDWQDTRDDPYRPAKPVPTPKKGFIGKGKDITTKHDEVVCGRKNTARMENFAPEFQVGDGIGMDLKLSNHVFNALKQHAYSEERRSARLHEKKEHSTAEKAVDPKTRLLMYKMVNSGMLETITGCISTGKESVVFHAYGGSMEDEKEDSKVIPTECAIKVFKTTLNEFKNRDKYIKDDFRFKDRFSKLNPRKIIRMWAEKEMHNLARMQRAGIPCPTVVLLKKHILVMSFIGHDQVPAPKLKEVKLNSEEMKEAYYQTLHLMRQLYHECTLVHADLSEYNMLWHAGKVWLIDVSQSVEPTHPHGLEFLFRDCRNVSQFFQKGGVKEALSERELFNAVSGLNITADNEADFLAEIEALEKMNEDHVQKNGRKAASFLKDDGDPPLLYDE
UniProt P31751, sequence (whole entry, looked up): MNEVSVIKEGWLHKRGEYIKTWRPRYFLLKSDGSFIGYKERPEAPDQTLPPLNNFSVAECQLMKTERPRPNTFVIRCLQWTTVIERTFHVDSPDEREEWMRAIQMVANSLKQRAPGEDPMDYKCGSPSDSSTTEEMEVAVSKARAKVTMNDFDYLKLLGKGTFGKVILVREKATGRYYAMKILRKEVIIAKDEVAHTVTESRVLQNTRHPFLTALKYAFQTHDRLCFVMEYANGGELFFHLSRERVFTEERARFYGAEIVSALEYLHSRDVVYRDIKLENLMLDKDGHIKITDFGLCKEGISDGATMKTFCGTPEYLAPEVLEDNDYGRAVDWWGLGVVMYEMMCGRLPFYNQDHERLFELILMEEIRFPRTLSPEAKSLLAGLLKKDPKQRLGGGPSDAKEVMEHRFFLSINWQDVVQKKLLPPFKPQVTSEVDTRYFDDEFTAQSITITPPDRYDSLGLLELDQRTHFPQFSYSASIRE

Series 1
SMILES: C[C@H](c1cccc(C#N)c1)n1cc(Cl)cc(C(N)=O)c1=N
Concentration: 1 µM
target	effect on	method	remaining binding
RIOK3 (Homo sapiens, UniProt O14730)	cell-free assay	competition with immobilised ligand	100%
STK11 (Homo sapiens, UniProt Q15831)	cell-free assay	competition with immobilised ligand	96%
GRK3 (Homo sapiens, UniProt P35626)	cell-free assay	competition with immobilised ligand	76%
CSNK1A1 (Homo sapiens, UniProt P48729)	cell-free assay	competition with immobilised ligand	86%
CDK13 (Homo sapiens, UniProt Q14004)	cell-free assay	competition with immobilised ligand	100%
PKMYT1 (Homo sapiens, UniProt Q99640)	cell-free assay	competition with immobilised ligand	100%
FER (Homo sapiens, UniProt P16591)	cell-free assay	competition with immobilised ligand	100%
CDC42BPG (Homo sapiens, UniProt Q6DT37)		competition binding	77%
CAMK2A (Homo sapiens, UniProt Q9UQM7)	cell-free assay	competition with immobilised ligand	100%
MAP3K6 (Homo sapiens, UniProt O95382)	cell-free assay	competition with immobilised ligand	91%
CDK4 (Homo sapiens, UniProt P11802)	cell-free assay	competition with immobilised ligand	88%
FGFR3 (Homo sapiens, UniProt P22607, G697C)	cell-free assay	competition with immobilised ligand	100%
CDC42BPB (Homo sapiens, UniProt Q9Y5S2)	cell-free assay	competition with immobilised ligand	85%
BUB1 (Homo sapiens, UniProt O43683)	cell-free assay	competition with immobilised ligand	75%
TRPM6 (Homo sapiens, UniProt Q9BX84)	cell-free assay	competition with immobilised ligand	83%
Tyrosine-protein kinase ABL1, phosphorylated (ABL1, Homo sapiens, UniProt P00519, E255K)	binding	competition with immobilised ligand	87%
Tyrosine-protein kinase ABL1, phosphorylated (ABL1, Homo sapiens, UniProt P00519, M351T)	cell-free assay	competition with immobilised ligand	100%

Series 2
SMILES: O=C(Nc1cnn(-c2csc(C(=O)NC3COC3)c2)c1)Nc1c(F)cccc1Cl
Effect on: enzyme activity
Concentration: 5 µM
target	action	baseline	remaining activity
HIPK1 (Homo sapiens, UniProt Q86Z02)		untreated control	91.3%
PHKG2 (Homo sapiens, UniProt P15735)		untreated control	127%
CDK14 (Homo sapiens, UniProt O94921)	inhibitor		110%
MAPK1 (Homo sapiens, UniProt P28482)		untreated control	83.9%
RIPK3 (Homo sapiens, UniProt Q9Y572)		untreated control	92.7%
TESK1 (Homo sapiens, UniProt Q15569)	inhibitor		84.7%
ERN2 (Homo sapiens, UniProt Q76MJ5)		untreated control	98.5%
STK26 (Homo sapiens, UniProt Q9P289)		untreated control	69.7%
SIK1 (Homo sapiens, UniProt P57059)		untreated control	96.5%
AKT2 (Homo sapiens, UniProt P31751)		untreated control	104%
NEK5 (Homo sapiens, UniProt Q6P3R8)	inhibitor		88.1%
PTK2 (Homo sapiens, UniProt Q05397)		untreated control	87.5%

Series 3
Structure (SMILES): C=CCc1ccc(O)c(-c2ccc(O)c(CC=C)c2)c1
ANO1 del476-501/E649A: Anoctamin-1 (ANO1, Homo sapiens, UniProt Q5XXA6, del476-501/E649A)
UniProt Q5XXA6, sequence (whole entry, unmodified, looked up): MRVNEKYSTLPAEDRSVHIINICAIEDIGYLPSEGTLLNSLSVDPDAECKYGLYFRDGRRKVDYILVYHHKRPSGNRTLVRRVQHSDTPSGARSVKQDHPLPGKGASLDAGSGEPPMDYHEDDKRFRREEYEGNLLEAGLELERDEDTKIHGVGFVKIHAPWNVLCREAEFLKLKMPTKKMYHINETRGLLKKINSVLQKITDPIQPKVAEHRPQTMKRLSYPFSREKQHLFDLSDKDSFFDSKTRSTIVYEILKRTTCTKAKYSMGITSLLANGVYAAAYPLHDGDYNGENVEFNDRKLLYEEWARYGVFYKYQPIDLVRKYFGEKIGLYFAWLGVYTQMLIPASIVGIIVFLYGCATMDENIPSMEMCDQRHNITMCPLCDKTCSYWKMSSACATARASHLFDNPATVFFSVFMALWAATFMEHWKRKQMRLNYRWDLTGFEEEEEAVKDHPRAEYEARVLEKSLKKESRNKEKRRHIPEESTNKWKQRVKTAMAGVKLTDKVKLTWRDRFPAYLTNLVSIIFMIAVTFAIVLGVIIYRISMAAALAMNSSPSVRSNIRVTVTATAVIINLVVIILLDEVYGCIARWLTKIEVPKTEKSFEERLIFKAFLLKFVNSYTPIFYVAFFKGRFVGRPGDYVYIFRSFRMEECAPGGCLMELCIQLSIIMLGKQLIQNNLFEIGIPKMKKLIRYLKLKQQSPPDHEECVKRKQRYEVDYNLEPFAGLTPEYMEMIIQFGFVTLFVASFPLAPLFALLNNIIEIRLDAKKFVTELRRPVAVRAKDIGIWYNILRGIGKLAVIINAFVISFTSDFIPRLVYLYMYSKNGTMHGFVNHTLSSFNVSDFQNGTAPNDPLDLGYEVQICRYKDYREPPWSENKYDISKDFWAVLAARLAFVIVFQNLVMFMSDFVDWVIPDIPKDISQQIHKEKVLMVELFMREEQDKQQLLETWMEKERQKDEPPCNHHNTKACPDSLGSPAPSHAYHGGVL
ANO1 del476-501/E649A/R541A: Anoctamin-1 (ANO1, Homo sapiens, UniProt Q5XXA6, del476-501/E649A/R541A)
ANO1 del476-501/F628A: Anoctamin-1 (ANO1, Homo sapiens, UniProt Q5XXA6, del476-501/F628A)
target	test	conditions	normalized current
ANO1 del476-501/E649A	ion current, inside-out patch clamp	10 µM, E623A mutant at 20 mV	0.148
ANO1 del476-501/E649A	ion current, inside-out patch clamp	10 µM, E623A mutant at 40 mV	0.297
Anoctamin-1 (ANO1, Homo sapiens, UniProt Q5XXA6, del476-501)	chloride current, whole-cell voltage clamp	30 µM, wild type, I-V at -40 mV, together with: 4 µM Ca2+	-0.0279
ANO1 del476-501/E649A/R541A	chloride current, inside-out patch clamp	10 µM, membrane voltage 20 mV	0.0923
ANO1 del476-501/F628A	chloride current, whole-cell voltage clamp	10 µM, I-V at -60 mV, together with: 4 µM Ca2+	-0.366
ANO1 del476-501/F628A	chloride current, whole-cell voltage clamp	100 µM, concentration-response at -20 mV, together with: 4 µM Ca2+	-0.0307
ANO1 del476-501/E649A/R541A	chloride current, inhibitor, inside-out patch clamp	10 µM, R515A/E623A mutant at -80 mV	-0.362
ANO1 del476-501/F628A	chloride current, whole-cell voltage clamp	3 µM, I-V at -100 mV, together with: 4 µM Ca2+	-0.815
ANO1 del476-501/F628A	chloride current, whole-cell voltage clamp	30 µM, concentration-response at 40 mV, together with: 4 µM Ca2+	0.19
ANO1 del476-501/F628A	chloride current, whole-cell voltage clamp	30 µM, concentration-response at -60 mV, together with: 4 µM Ca2+	-0.287
ANO1 del476-501/F628A	chloride current, whole-cell voltage clamp	1 µM, I-V at 60 mV, together with: 4 µM Ca2+	0.485
ANO1 del476-501/F628A	chloride current, whole-cell voltage clamp	100 µM, I-V at -60 mV, together with: 4 µM Ca2+	-0.151

Series 4
Target: Calcium/calmodulin-dependent protein kinase type II subunit alpha (CAMK2A, Homo sapiens, UniProt Q9UQM7)
Effect on: enzyme activity
Action: inhibitor
Concentration: 10 µM
SMILES	inhibition
COc1c(-c2ccccc2)oc2c(ccc3occc32)c1=O	-3%
CCC(CC)C(=O)O	-19%
O=C(O)C[C@H](O)C[C@H](O)/C=C/c1c(C2CC2)nc2ccccc2c1-c1ccc(F)cc1	5%
COc1ccc([C@@H]2Sc3ccccc3N(CCN(C)C)C(=O)[C@@H]2OC(C)=O)cc1	-13%
COc1ccc([C@H]2OC[C@H]3[C@@H]2CO[C@@H]3c2ccc(OC)c(OC)c2)cc1OC	-0.16% and -0.12%
CCC[C@@H]1C[C@@H](C(=O)N[C@@H]([C@H]2O[C@H](SC)[C@H](O)[C@@H](O)[C@H]2O)[C@@H](C)O)N(C)C1	-7%
CC(CCC(=O)O)C(=O)O (centres unmarked)	-64%
CC(C)=CCC[C@](C)(O[C@@H]1O[C@H](CO)[C@@H](O)[C@H](O)[C@H]1O)[C@H]1CC[C@]2(C)[C@@H]1[C@H](O)C[C@@H]1[C@@]3(C)CC[C@H](O)C(C)(C)[C@@H]3[C@@H](O[C@@H]3O[C@H](CO)[C@@H](O)[C@H](O)[C@H]3O[C@@H]3O[C@@H](C)[C@H](O)[C@@H](O)[C@H]3O)C[C@]12C	-16%
COc1cc(O[C@@H]2O[C@H](CO[C@@H]3O[C@H](CO)[C@@H](O)[C@H](O)[C@H]3O)[C@@H](O)[C@H](O)[C@H]2O)c2c(O)c3c(=O)cc(C)oc3cc2c1	-43%
